Measured values collected from several papers.
Numbered parts are unrelated; each lists some results of a single study.
Chain of UniProt Q9WVH4 (31-263, looked up): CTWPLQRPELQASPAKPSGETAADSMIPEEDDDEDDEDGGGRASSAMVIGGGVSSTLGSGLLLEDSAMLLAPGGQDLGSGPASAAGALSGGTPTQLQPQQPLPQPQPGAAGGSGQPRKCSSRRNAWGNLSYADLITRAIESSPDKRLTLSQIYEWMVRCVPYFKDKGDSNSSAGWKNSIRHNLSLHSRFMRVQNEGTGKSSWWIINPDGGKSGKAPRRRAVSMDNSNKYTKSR
Chain of UniProt P18846 (whole entry, looked up): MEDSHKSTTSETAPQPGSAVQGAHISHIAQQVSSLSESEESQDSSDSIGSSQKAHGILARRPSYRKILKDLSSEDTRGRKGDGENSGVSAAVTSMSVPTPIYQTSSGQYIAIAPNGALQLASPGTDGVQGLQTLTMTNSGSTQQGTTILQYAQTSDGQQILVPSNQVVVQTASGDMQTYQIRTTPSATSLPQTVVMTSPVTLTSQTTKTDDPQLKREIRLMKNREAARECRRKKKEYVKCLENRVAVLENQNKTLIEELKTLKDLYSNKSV

Block 1 — effect on: enzyme activity; action: inhibitor; concentration: 20 µM
Target: Replicase polyprotein 1ab, polymerase (rep, Severe acute respiratory syndrome coronavirus 2, UniProt P0DTD1)
`N[C@@H](CCC(=O)O)C(=O)O` has an inhibition of -1.5%.
With `NS(=O)(=O)Oc1ccc2c3c(c(=O)oc2c1)CCCCC3` the inhibition was -3.5%.
With `Cc1cc(C)c(NC(=O)N(Cc2ccc3c(c2)Cc2ccccc2-3)C2CCCCCC2)c(C)c1` the inhibition was 1.56%.
For `CS(=O)(=O)c1ccc(-c2nnc(/C=C/c3nnc(-c4ccc(C#N)cc4)o3)n2-c2ccccc2Cl)nc1`, the inhibition was -1.75%.
`Cc1ccc(=O)n(-c2ccc(O)cc2)c1` gave an inhibition of -7.08%.
`O=C[C@H](F)[C@@H](O)[C@@H](O)[C@H](O)CO` gave an inhibition of -0.54%.
The inhibition of `O=C(Oc1ccccc1C(=O)O)c1ccccc1O` is reported as 5.42%.
`CN(CCCN1c2ccccc2CCc2ccccc21)CC(=O)c1ccc(Cl)cc1` has an inhibition of 0.51%.
The inhibition of `CCNC(C)CN1CCc2c(c(=O)oc3ccccc23)C1` (centres unmarked) is reported as -0.68%.
`O=c1c2ccccc2[se]n1-c1ccccc1` gave an inhibition of 22.9%.
With `COC(=O)[C@H](Cc1ccc([N+](=O)[O-])cc1)NC(=O)c1cccc2ccccc12` the inhibition was -2.09%.
The inhibition of `CN(C(=O)c1c(O)c2ccccc2n(C)c1=O)c1ccccc1` is reported as 1.64%.
The inhibition of `O=C(O[C@H]1[C@H](OC(=O)c2cccnc2)[C@@H](OC(=O)c2cccnc2)[C@H](OC(=O)c2cccnc2)[C@@H](OC(=O)c2cccnc2)[C@H]1OC(=O)c1cccnc1)c1cccnc1` is reported as -1.2%.
With `O=C(Cc1ccc(-c2ccccc2)cc1)Nc1ccccn1` the inhibition was 2.63%.
The inhibition of `Nc1nccs1` is reported as -5.75%.
With `Cc1cccc(Nc2nc(-c3ccncc3)cs2)c1` the inhibition was -5.59%.
`CC(=O)C(=O)O` has an inhibition of 1.12%.
With `O=C(O)C(=O)Nc1cccc(-c2nnn[nH]2)c1` the inhibition was 3.57%.
With `N=C(N)c1ccc(N=NNc2ccc(C(=N)N)cc2)cc1` the inhibition was -1.26%.
With `Cc1cc(I)ccc1Nc1c(C(=O)NOCC2CC2)cc(F)c(F)c1F` the inhibition was 5.21%.
For `Cc1c(O)cccc1C(=O)N[C@@H](CSc1ccccc1)[C@H](O)CN1C[C@H]2CCCC[C@H]2C[C@H]1C(=O)NC(C)(C)C`, the inhibition was 5.07%.
`Cn1cnc2c(NCc3ccccc3)nc(NCCO)nc21` has an inhibition of -4.95%.
The inhibition of `CCN1CCC(n2cc(CNc3cc(Cl)c4ncc(C#N)c(Nc5ccc(F)c(Cl)c5)c4c3)nn2)CC1` is reported as 8.54%.
The inhibition of `CCN(CC)C(=O)[C@]1(c2ccccc2)C[C@@H]1CN` (racemic) is reported as -13.6%.
With `C=CCc1cc(OC)c(O)c(C(=O)NCCO)c1` the inhibition was -1.29%.

Block 2 — technique: RNA Bind-n-Seq; form: RNA; sample: in vitro; concentration: not given; relative to: input RNA pool; direction: higher = stronger binding
Target: RING finger protein unkempt homolog, zinc fingers 1-6, GST-SBP tag (UNK, Homo sapiens, UniProt Q9C0B0, residues 30-357)
Notes: RNA with constant flanks, human and mouse sites, ends assumed
Residues (chain): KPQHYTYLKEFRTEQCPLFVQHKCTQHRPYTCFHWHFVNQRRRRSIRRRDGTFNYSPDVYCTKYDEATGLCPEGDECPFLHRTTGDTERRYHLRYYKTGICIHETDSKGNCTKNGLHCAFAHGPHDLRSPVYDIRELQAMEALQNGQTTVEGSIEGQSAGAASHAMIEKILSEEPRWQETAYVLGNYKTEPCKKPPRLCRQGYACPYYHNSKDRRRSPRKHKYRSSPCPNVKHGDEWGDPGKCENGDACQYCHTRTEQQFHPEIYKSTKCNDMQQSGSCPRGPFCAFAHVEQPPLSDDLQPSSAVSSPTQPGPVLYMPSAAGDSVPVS
The bound/input enrichment of `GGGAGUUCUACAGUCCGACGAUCCAAAGUAUUGAACGUUCUCAUCGGAUUGCCACAGAGACUGACCAGAUUGGCUCAGAAAUCAUAGAAGAGCUGGGGGAACAACGAGACCAGUUAGAACGUACCAAGAGUAGACUGGUAAACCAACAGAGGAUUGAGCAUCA` is reported as 0.356 ratio.
`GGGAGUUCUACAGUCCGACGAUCCAGGAACAACCGGCUCGGCGGCCCGGGCUCGCUGCCCAAGGGCCUGGCCCAGUCGCCGCUCUGCCGCAGCCUCCAAGUGCUCAACCUCAGCGGCAACUGCUUCCAGGAGCUGCCCGCCUCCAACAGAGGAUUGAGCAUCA` has a bound/input enrichment of 0.236 ratio.
The bound/input enrichment of `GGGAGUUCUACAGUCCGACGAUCCAAGAUUUUCAGAUGUUAAGUAGAAUAUGGACUCAUCCUUGGUGUUUGCAGCUAGACUACAUUAGCAAAGAAAAUAAGGGUUAUUUUGAUGAAGACAGUAUGGAUGAAUUUAUAGCCUCACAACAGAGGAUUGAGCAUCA` is reported as 0.608 ratio.
The bound/input enrichment of `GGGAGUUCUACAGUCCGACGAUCAACAUUCAUUUCAUGAAAGCCUUCCAGAAAAUAGUGGUGCUUUUUUAUAAAGCUGAAGUCCUGAGCGAGGAGCCCAUUUUGAAGUGGUAUAAAGAUGCACAUGUUGCAAAGGGGAAGAGUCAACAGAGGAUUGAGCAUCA` is reported as 0.382 ratio.
With `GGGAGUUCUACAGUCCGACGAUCUACUACUGCUGUGAAGAGUGUAACUUCAUGGCAGUGACAGAAAAUGAAUUGGAAUGCCAUCGAGGCAUUGCACAUGGGGCAGUGGUAAAAUGCCCUAUGGUCACUUCUGAUAUUGCCCAGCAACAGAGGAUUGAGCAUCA` the bound/input enrichment was 0.0782 ratio.
The bound/input enrichment of `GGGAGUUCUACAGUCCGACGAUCUGCGUUGGCACCAACAUGGUGGGGGAACGGGAGAGUGAAGUCGCAGAGCUAACCGUUUUAGAGAGACCAUCGUUUGUGAAGAGACCCAGUAAUUUGGCAGUGACUGUGGAUGACAGUGCACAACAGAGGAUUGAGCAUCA` is reported as 0.729 ratio.
With `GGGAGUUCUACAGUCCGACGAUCCUGAAAGCUGCCAUUUCAGAACGUGAAGAGGUUAGAGGGAGAAGUGAACUGUUUCAUCCUGUUAGUGUAGACUGUAAGCUAAGGCAAAAAGCAACCACAAGAGCUGACACCGAUGUAGACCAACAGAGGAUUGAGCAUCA` the bound/input enrichment was 1.17 ratio.
The bound/input enrichment of `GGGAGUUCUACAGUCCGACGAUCAACUUAUUGGAUGCAGUAUAUUCAUUUUGCUUGAUGAAUUACUUUCCCCUGGCUCCUUUUAAUCAGCUUCUGCAAAAAGACAUCAUCAGUGAGCUGCUGACAUCAGAUGACAUGAAGAAUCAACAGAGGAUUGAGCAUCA` is reported as 0.138 ratio.

Block 3 — technique: RNAcompete; form: RNA; sample: in vitro; concentration: 20 nM; notes: 7-mer, probes averaged, single round; relative to: mean of 7-mers; direction: higher = stronger binding
Target: PABPC1L2, full length, GST fusion (mouse, UniProt A0ABA7IW68)
Construct (chain): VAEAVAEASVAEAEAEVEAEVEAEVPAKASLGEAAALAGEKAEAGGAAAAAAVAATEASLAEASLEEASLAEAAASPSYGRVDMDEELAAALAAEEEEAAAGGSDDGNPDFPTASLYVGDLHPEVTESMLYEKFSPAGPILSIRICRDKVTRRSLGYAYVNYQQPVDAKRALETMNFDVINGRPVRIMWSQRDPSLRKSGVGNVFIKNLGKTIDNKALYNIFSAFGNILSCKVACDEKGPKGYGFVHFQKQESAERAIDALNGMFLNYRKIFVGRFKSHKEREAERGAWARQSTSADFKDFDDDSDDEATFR
`GGCGAGU` has a 7-mer Z-score of 0.0315.
With `GCAGACC` the 7-mer Z-score was -0.0174.
The 7-mer Z-score of `GUGUUUG` is reported as -0.44.
The 7-mer Z-score of `UUUUACU` is reported as -0.151.
`GCUUGCU` has a 7-mer Z-score of -0.427.
The 7-mer Z-score of `CUUAAAC` is reported as 0.282.
`AUUGUAA` gave a 7-mer Z-score of 0.0859.
The 7-mer Z-score of `UCCUCUC` is reported as -0.369.

Block 4 — cell line: HEK-293T/ACE2; concentration: concentration not given; time: 16 (unit not given); relative to: vehicle
`NS(=O)(=O)c1cc2c(cc1Cl)NC(C(Cl)Cl)NS2(=O)=O` (centres unmarked) has a viability of 105%.
`CNNCc1ccc(C(=O)NC(C)C)cc1` has a viability of 105%.
`CN(C)CCn1nnnc1SCC1=C(C(=O)O)N2C(=O)[C@@H](NC(=O)Cc3csc(N)n3)[C@H]2SC1` gave a viability of 105%.

Further values, each from its own experiment
rep main protease: Replicase polyprotein 1ab, main protease (rep, Severe acute respiratory syndrome coronavirus 2, UniProt P0DTD1)
POU6F1 POU and homeodomain: POU domain, class 6, transcription factor 1, POU and homeodomain (POU6F1, Homo sapiens, UniProt Q14863, residues 311-611)
Chain of UniProt Q14863 (311-611, looked up): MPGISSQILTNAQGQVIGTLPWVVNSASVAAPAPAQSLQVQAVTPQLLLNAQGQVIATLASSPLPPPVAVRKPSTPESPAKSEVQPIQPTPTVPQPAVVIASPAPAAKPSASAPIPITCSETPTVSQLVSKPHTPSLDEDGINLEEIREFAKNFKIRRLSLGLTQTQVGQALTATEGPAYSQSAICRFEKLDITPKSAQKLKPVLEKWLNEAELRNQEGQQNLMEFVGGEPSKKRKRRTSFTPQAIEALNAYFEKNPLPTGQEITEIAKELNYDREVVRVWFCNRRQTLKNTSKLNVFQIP
The median fluorescence of `GAGGCCATGTAGCCAACGCCTCCTGGCGTTGGCTACATGGCCTCACACTC` is reported as 4360 a.u. (FOXO3, forkhead domain (mouse, UniProt Q9WVH4, residues 31-263); protein-binding microarray; hairpin DNA, in vitro; not given, whole hairpin DNA, median over replicate spots; relative to: not given, higher = stronger binding).
`C[C@@](Cc1ccc(O)c(O)c1)(NN)C(=O)O` gave an inhibition of 94.5% (rep main protease; enzyme activity, inhibitor; 20 µM, hit confirmation, no DTT).
`GAGGCCATAACTAGGTGCCTCCTGGCACCTAGTTATGGCCTCACACTCTT` gave a median fluorescence of 420 a.u. (POU6F1 POU and homeodomain; protein-binding microarray; hairpin DNA, in vitro; not given, whole hairpin DNA, median over replicate spots; relative to: not given, higher = stronger binding).
For `NC(Cc1cc(O)c(O)cc1O)C(=O)O` (centres unmarked), the inhibition was 70% (rep main protease; enzyme activity, inhibitor; 20 µM, with DTT).
With `GAGGCCATAATGAGGGGCCTCCTGGCCCCTCATTATGGCCTCACACTCTT (5mC at 27)` the median fluorescence was 1830 a.u. (POU6F1 POU and homeodomain; protein-binding microarray; hairpin DNA, in vitro; not given, whole hairpin DNA, median over replicate spots; relative to: not given, higher = stronger binding).
With `GAGGCCGACGACGTCGTGCCTCCTGGCACGACGTCGTCGGCCTCACACTC (5mC at 9 15 29 35)` the median fluorescence was 4380 a.u. (Cyclic AMP-dependent transcription factor ATF-1, full length (ATF1, Homo sapiens, UniProt P18846, residues 1-271); protein-binding microarray; hairpin DNA, in vitro; not given, whole hairpin DNA, median over replicate spots; relative to: not given, higher = stronger binding).

Repeated from above (further values, each from its own experiment):
With `GAGGCCATAATGAGGGGCCTCCTGGCCCCTCATTATGGCCTCACACTCTT (5mC at 27)` the median fluorescence was 1830 a.u. (POU6F1 POU and homeodomain; protein-binding microarray; hairpin DNA, in vitro; not given, whole hairpin DNA, median over replicate spots; relative to: not given, higher = stronger binding).
With `GAGGCCGACGACGTCGTGCCTCCTGGCACGACGTCGTCGGCCTCACACTC (5mC at 9 15 29 35)` the median fluorescence was 4380 a.u. (Cyclic AMP-dependent transcription factor ATF-1, full length (ATF1, Homo sapiens, UniProt P18846, residues 1-271); protein-binding microarray; hairpin DNA, in vitro; not given, whole hairpin DNA, median over replicate spots; relative to: not given, higher = stronger binding).
`GAGGCCATAACTAGGTGCCTCCTGGCACCTAGTTATGGCCTCACACTCTT` gave a median fluorescence of 420 a.u. (POU6F1 POU and homeodomain; protein-binding microarray; hairpin DNA, in vitro; not given, whole hairpin DNA, median over replicate spots; relative to: not given, higher = stronger binding).
The median fluorescence of `GAGGCCATGTAGCCAACGCCTCCTGGCGTTGGCTACATGGCCTCACACTC` is reported as 4360 a.u. (FOXO3, forkhead domain (mouse, UniProt Q9WVH4, residues 31-263); protein-binding microarray; hairpin DNA, in vitro; not given, whole hairpin DNA, median over replicate spots; relative to: not given, higher = stronger binding).
`C[C@@](Cc1ccc(O)c(O)c1)(NN)C(=O)O` gave an inhibition of 94.5% (rep main protease; enzyme activity, inhibitor; 20 µM, hit confirmation, no DTT).
